Measurements gathered from unrelated publications.
Every numbered part comes from another study and shows a few of its results, in no order. Changes are numbered by the printed parent chain.
UniProt Q99558, sequence (whole entry, looked up): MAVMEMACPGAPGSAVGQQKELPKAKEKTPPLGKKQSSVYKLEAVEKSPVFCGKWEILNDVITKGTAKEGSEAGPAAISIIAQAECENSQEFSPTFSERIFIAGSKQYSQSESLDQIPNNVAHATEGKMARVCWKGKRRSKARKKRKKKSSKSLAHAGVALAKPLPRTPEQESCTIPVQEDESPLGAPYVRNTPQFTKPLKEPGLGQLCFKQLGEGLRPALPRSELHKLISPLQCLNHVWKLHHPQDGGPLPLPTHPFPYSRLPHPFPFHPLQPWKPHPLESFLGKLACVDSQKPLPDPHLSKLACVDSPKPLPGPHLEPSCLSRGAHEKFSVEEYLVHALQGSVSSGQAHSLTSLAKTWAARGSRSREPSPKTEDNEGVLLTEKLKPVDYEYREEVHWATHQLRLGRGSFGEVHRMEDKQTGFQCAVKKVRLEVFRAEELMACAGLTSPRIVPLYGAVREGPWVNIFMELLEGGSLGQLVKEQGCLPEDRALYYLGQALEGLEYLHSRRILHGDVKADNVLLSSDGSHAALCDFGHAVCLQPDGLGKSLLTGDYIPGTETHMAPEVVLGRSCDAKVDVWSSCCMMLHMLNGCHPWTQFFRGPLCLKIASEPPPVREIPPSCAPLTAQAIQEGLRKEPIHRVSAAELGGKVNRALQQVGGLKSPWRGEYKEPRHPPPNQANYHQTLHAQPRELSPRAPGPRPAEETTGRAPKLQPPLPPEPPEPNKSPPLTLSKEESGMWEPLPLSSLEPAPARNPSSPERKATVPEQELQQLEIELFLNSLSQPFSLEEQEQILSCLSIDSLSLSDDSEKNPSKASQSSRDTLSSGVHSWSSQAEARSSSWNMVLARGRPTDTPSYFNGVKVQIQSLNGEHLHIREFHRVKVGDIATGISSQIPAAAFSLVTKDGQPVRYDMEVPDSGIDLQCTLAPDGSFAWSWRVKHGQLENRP
UniProt P27361, sequence (whole entry, looked up): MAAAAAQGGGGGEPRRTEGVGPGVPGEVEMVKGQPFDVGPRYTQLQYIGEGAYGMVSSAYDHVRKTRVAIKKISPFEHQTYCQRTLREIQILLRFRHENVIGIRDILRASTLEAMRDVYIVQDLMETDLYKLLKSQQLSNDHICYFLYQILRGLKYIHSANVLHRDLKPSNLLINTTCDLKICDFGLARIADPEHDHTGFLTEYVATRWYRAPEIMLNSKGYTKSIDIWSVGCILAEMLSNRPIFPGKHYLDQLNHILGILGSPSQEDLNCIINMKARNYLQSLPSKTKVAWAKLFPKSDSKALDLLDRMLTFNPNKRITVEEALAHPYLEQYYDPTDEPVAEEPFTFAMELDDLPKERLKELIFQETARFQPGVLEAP
UniProt Q9Y6M4, sequence (whole entry, looked up): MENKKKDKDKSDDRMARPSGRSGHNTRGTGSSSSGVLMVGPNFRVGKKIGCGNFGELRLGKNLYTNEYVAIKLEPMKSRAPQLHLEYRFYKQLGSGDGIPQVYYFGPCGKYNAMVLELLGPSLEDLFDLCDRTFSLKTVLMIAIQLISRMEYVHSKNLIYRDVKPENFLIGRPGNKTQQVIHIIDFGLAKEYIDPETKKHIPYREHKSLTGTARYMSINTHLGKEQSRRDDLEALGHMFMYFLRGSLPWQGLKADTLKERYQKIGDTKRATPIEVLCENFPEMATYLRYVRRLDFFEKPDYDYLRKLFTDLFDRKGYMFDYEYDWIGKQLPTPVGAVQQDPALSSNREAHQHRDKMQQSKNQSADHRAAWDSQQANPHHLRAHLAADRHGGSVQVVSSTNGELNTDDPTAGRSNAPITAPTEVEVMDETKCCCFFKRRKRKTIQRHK
UniProt P49841, sequence (whole entry, looked up): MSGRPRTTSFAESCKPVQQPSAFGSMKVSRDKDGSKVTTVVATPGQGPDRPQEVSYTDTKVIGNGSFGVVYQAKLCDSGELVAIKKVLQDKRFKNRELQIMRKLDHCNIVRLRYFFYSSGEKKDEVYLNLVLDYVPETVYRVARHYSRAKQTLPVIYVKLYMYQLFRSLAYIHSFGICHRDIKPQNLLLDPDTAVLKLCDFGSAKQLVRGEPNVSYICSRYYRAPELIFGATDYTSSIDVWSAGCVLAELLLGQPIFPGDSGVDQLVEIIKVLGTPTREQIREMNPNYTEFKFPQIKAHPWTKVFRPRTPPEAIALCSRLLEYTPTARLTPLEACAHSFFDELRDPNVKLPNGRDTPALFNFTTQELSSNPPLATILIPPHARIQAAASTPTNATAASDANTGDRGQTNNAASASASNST
UniProt Q9UHD2, sequence (whole entry, looked up): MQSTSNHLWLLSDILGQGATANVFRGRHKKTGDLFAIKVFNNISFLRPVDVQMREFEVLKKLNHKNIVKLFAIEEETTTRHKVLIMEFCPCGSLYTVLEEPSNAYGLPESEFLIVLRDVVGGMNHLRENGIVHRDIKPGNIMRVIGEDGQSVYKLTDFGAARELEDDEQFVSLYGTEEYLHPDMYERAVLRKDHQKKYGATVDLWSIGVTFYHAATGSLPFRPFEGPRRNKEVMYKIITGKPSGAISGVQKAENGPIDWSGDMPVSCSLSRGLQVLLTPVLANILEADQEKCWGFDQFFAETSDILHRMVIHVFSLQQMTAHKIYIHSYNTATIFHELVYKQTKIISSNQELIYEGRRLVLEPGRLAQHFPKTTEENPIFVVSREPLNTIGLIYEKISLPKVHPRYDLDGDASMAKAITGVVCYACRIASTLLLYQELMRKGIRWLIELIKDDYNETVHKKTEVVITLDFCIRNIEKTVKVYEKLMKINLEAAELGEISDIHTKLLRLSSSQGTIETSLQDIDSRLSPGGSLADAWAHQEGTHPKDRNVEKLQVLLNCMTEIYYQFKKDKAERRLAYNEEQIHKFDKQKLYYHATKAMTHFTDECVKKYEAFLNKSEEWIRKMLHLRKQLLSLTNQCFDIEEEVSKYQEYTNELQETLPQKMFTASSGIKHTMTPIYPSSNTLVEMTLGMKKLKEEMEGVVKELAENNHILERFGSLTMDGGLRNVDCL
UniProt Q04912, sequence (whole entry, looked up): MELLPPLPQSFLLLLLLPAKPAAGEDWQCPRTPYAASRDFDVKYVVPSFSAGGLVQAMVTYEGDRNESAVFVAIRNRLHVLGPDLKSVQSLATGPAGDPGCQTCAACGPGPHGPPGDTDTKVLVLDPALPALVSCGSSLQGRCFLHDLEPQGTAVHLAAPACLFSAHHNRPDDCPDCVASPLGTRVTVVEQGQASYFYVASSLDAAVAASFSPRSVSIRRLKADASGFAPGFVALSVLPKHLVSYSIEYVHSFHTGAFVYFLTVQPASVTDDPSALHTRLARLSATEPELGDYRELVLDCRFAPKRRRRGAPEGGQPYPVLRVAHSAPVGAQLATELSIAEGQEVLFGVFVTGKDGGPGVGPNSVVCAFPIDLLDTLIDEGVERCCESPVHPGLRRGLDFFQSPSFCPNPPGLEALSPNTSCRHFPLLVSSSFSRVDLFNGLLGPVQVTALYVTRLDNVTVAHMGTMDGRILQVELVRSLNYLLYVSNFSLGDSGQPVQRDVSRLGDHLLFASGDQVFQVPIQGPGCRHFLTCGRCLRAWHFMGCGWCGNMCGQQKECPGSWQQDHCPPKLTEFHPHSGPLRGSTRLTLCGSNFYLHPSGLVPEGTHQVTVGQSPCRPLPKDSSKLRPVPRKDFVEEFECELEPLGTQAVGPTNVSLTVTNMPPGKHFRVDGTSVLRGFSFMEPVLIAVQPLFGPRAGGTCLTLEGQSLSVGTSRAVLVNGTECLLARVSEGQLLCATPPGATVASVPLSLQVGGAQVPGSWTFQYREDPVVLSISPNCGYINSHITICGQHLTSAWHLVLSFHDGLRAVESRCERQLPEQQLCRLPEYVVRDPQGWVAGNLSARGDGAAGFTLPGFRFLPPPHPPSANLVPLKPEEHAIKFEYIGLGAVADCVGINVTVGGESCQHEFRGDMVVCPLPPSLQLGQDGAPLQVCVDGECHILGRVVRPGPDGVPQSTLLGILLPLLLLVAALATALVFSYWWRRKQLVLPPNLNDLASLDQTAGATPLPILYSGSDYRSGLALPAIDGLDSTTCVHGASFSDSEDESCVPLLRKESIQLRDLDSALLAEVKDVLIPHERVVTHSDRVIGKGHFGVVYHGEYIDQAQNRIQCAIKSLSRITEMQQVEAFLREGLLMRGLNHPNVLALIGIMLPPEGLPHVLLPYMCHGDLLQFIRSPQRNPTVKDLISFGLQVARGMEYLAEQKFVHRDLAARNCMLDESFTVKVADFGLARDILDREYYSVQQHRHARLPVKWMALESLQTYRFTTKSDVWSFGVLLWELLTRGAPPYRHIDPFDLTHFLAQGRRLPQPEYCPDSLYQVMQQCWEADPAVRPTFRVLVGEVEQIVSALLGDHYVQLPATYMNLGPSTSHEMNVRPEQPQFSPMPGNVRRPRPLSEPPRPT
UniProt P30291, sequence (whole entry, looked up): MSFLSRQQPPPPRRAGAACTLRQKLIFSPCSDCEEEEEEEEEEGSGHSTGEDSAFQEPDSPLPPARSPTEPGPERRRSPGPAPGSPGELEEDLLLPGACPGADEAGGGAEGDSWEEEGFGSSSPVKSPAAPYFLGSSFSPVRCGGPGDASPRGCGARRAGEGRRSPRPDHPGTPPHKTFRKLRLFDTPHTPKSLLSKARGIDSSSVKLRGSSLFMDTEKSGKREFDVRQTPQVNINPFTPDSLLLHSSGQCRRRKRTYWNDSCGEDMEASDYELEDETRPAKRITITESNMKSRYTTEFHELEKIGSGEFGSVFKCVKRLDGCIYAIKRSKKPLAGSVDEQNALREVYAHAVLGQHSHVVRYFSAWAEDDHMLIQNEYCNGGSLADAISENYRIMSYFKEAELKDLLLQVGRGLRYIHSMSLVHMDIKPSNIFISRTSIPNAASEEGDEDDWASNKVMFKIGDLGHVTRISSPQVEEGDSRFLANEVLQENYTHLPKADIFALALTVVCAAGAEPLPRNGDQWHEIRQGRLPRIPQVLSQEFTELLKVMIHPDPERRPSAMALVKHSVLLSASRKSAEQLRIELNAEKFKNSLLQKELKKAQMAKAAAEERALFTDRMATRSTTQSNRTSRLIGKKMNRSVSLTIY

Study 1
SMILES: COc1ccc2c(c[n+](C)c3c4cc5c(cc4ccc23)OCO5)c1OC
Effect on: enzyme activity
Mode: inhibitor
Concentration: 0.5 µM
Reference: control
Endpoint: remaining activity
MAP2K2 (Homo sapiens, UniProt P36507): 95.6%
CSNK1G3 (Homo sapiens, UniProt Q9Y6M4): 92.5%
GRK7 (Homo sapiens, UniProt Q8WTQ7): 101%
MAP3K14 (Homo sapiens, UniProt Q99558): 88.1%
ACVR1B (Homo sapiens, UniProt P36896): 110%
MST1R (Homo sapiens, UniProt Q04912): 97.8%
GSK3B (Homo sapiens, UniProt P49841): 88.3%
TBK1 (Homo sapiens, UniProt Q9UHD2): 96.2%
MAPK3 (Homo sapiens, UniProt P27361): 108%
EPHA3 (Homo sapiens, UniProt P29320): 94.9%
WEE1 (Homo sapiens, UniProt P30291): 108%

Study 2
Target: CCNA1, cyclin fold, Cln2 fusion (human)
Method: yeast growth competition, sequencing
Sample: yeast
Setting: weak parent motif
Reference: not given
Direction: higher = stronger binding
Endpoint: normalised enrichment score
Starting sequence: viral docking peptide; KKVKRRLFETREL; partner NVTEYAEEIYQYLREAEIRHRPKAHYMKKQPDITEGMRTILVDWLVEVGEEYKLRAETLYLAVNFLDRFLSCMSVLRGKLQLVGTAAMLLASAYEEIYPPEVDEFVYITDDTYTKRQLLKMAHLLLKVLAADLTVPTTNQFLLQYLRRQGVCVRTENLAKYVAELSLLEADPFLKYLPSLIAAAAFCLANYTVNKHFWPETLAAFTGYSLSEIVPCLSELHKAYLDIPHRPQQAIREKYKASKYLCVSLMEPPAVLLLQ
KKVKRRLLETREL [F8L]: 0.188
KKVKRRAFETREL [L7A]: 0.708
AKVKRRLFETREL [K1A]: 0.664
KKVKARLFETREL [R5A]: 0.358
KKVARRLFETREL [K4A]: 0.27
KKVKRALFETREL [R6A]: 0.613
KKVKKRLLETREL [R5K F8L]: -0.137
KKVKRRLFETREA [L13A]: 0.48

Other studies, line by line
CN1C(=O)COc2c(C(=O)NC3CN4CCC3CC4)cc(Cl)cc21 (stereo not shown)
inhibition (Sarcocystis neurona; parasite growth; 10 µM, 96 h, secondary screen): -13.4%

CN1C[C@H](CNC(=O)OCc2ccccc2)C[C@@H]2c3cccc4c3c(cn4C)C[C@H]21
nuclear SOX9 intensity (mouse MPNST tumor cells; high-content immunofluorescence imaging, item: nuclear SOX9; 10 µM, 12 h, mean of 2 replicates; reference: DMSO control, higher = more nuclear SOX9): 179 % of DMSO

DEQSIAEA
binding (HLA class I histocompatibility antigen, B alpha chain, allele B*18:01 (Homo sapiens, UniProt P01889); peptide-MHC binding; peptide; concentration not given): active
